# Assay results from different studies.
# Parts stem from different laboratories: compare values within a part only.
# Sequence of UniProt Q00532 (whole entry, looked up): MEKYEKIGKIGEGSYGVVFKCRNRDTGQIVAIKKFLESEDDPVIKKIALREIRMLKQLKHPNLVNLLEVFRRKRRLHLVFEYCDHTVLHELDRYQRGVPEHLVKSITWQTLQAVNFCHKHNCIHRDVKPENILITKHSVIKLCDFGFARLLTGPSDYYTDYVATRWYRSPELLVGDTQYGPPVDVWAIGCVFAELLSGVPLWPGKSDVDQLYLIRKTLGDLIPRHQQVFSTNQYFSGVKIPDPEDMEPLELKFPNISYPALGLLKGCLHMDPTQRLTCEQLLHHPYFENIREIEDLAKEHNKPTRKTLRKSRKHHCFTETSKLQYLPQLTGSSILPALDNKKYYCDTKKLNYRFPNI
# Sequence of UniProt P48729 (whole entry, looked up): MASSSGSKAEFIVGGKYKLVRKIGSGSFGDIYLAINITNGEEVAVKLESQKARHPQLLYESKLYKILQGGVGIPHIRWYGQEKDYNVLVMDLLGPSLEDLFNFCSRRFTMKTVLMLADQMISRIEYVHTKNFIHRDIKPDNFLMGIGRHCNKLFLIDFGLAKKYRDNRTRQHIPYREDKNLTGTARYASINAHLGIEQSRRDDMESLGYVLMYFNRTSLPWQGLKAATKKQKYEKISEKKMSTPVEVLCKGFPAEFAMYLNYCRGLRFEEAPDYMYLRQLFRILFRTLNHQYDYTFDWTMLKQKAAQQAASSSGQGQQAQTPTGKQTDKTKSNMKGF
# Sequence of UniProt P19784 (whole entry, looked up): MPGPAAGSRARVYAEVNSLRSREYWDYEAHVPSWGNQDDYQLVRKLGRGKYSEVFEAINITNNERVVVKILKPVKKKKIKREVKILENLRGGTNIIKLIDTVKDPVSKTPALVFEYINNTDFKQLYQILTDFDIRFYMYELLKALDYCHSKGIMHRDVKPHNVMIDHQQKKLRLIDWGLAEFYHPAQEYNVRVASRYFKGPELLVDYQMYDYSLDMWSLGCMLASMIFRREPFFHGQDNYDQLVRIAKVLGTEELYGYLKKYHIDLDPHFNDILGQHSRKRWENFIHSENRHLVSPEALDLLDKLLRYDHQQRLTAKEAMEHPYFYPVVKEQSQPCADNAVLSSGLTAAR
# Sequence of UniProt Q6PHR2 (whole entry, looked up): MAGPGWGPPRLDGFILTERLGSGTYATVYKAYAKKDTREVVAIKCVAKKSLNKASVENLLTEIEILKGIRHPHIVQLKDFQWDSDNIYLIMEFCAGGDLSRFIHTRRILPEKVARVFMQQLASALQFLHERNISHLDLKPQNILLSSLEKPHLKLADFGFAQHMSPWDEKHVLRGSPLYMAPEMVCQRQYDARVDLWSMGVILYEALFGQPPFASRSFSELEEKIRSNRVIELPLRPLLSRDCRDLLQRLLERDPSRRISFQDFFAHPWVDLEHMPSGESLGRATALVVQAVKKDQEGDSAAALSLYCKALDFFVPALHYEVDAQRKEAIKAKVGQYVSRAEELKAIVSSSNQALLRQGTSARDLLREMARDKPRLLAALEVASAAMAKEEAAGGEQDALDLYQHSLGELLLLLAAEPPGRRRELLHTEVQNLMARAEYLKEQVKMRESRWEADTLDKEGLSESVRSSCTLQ
# Sequence of UniProt Q56UN5 (whole entry, looked up): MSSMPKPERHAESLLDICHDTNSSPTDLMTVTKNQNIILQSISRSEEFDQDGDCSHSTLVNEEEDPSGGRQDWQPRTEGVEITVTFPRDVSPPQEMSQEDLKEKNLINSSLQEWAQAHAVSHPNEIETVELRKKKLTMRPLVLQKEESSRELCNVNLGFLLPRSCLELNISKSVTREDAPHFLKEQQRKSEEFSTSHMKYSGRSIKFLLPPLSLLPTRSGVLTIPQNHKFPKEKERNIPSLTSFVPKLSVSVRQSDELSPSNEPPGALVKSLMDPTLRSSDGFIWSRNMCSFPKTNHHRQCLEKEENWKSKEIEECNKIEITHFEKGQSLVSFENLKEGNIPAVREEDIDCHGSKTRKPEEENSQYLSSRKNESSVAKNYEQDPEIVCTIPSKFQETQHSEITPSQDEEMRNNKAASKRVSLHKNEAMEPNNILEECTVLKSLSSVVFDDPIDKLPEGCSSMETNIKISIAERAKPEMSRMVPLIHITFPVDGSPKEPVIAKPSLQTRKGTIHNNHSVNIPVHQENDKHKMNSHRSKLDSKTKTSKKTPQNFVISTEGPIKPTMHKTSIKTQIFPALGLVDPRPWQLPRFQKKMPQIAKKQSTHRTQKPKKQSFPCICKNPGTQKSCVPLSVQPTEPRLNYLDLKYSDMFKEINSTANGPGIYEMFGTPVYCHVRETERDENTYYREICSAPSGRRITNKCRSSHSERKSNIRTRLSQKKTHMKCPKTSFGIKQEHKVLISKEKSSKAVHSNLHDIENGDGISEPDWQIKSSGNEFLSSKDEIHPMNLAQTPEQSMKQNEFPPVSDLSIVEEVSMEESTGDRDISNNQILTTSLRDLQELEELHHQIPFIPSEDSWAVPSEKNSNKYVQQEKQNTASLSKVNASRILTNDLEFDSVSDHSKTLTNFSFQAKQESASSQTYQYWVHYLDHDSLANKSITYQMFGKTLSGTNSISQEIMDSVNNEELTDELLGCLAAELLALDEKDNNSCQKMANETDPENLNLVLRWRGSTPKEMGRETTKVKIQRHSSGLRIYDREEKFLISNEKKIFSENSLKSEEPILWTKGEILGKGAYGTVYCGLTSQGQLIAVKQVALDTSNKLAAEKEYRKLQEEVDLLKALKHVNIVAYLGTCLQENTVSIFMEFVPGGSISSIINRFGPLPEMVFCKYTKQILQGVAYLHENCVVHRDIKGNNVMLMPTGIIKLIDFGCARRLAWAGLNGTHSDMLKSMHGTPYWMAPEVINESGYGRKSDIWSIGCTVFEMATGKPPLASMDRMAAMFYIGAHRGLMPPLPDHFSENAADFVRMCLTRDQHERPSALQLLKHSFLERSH

# Sample 1 — technique: competition with immobilised ligand; concentration: 1 µM
# Structure (SMILES): CS(=O)(=O)NCC[C@H](NC(=O)c1cncc2c1cnn2-c1ccc(F)cc1)c1ccnc(S(C)(=O)=O)c1
target,effect on,remaining binding [%]
"MET (Homo sapiens, UniProt P08581, Y1235D)",cell-free assay,93
"CDKL1 (Homo sapiens, UniProt Q00532)",binding,84
"CSNK2A2 (Homo sapiens, UniProt P19784)",cell-free assay,100
"MAP3K19 (Homo sapiens, UniProt Q56UN5)",cell-free assay,98

# Sample 2 — cell line: HaCaT; concentration: 100 µM; time: 36 h
Compound,viability [%]
CC(CN(C)C)CN1c2ccccc2CCc2ccccc21 (stereo not drawn),98.2
CC1(C)C(C=C(Cl)Cl)C1C(=O)OCc1cccc(Oc2ccccc2)c1 (stereo not drawn),98
COC(=O)Nc1nc2ccc(C(=O)c3ccccc3)cc2[nH]1,14.7
Cc1onc(-c2c(Cl)cccc2Cl)c1C(=O)N[C@@H]1C(=O)N2[C@@H]1SC(C)(C)[C@@H]2C(=O)O,98.9

# Sample 3 — effect on: enzyme activity; mode: inhibitor; concentration: 10 µM
# Target: Calcium/calmodulin-dependent protein kinase type II subunit alpha (CAMK2A, Homo sapiens, UniProt Q9UQM7)
# Sequence of UniProt Q9UQM7 (whole entry, looked up): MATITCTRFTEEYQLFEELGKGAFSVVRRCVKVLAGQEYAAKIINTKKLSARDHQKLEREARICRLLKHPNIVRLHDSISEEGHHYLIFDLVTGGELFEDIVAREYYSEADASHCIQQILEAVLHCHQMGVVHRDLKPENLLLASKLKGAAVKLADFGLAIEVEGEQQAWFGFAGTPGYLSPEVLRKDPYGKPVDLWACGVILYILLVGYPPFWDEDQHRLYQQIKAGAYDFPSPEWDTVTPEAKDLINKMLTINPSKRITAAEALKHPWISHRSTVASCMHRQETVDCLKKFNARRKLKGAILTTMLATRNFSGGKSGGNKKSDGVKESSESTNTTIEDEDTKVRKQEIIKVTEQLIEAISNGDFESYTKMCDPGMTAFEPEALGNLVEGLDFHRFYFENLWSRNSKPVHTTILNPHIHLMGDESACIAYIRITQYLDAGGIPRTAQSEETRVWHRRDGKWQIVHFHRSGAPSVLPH
SMILES,inhibition [%]
CCOc1ccccc1C(N)=O,-6
C=C1C[C@@]23CC[C@H]4[C@@](C)(CCC[C@@]4(C)C(=O)O[C@@H]4O[C@H](CO)[C@@H](O)[C@H](O[C@@H]5O[C@H](CO)[C@@H](O)[C@H](O)[C@H]5O)[C@H]4O[C@@H]4O[C@H](CO)[C@@H](O)[C@H](O)[C@H]4O)[C@@H]2CC[C@]1(O[C@@H]1O[C@H](CO)[C@@H](O)[C@H](O[C@@H]2O[C@H](CO)[C@@H](O)[C@H](O)[C@H]2O)[C@H]1O[C@@H]1O[C@H](CO)[C@@H](O)[C@H](O)[C@H]1O)C3,-14
Cn1c(=O)c2c(ncn2CC(O)CO)n(C)c1=O (stereo not drawn),-8

# Sample 4 — effect on: enzyme activity; mode: inhibitor; concentration: 0.5 µM; reference: control
# Target: SRSF protein kinase 2 (SRPK2, Homo sapiens, UniProt P78362)
# Sequence of UniProt P78362 (whole entry, looked up): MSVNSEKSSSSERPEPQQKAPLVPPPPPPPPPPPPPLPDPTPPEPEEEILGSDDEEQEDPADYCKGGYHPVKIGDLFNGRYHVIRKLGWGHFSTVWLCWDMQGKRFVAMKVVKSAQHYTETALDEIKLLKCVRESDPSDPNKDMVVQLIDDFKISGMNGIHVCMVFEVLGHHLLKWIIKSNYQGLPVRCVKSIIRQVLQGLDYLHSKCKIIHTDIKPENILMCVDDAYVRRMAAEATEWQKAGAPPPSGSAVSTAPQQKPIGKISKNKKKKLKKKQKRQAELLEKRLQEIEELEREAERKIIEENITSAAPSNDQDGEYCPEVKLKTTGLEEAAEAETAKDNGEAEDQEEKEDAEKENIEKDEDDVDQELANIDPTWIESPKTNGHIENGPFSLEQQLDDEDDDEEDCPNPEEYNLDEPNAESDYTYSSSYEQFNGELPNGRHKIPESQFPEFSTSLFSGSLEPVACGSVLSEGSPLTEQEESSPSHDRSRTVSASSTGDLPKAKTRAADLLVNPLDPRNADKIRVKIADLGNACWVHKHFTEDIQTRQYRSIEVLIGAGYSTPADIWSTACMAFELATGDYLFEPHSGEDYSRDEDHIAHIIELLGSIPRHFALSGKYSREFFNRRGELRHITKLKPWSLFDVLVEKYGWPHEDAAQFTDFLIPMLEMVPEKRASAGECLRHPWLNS
SMILES,remaining activity [%]
COc1ccc(CNC(=O)Nc2ncc([N+](=O)[O-])s2)cc1,99.6
N#CC(C#N)=C(N)/C(C#N)=C/c1ccc(O)cc1,88.8
COc1ccc(OC)c2c(=S)c3ccccc3[nH]c12,95.1
O=c1c2ccccc2[nH]c(=S)n1CCN1CCC(=C(c2ccc(F)cc2)c2ccc(F)cc2)CC1,94.1
O=C(O)c1ccc2c3c1cccc3c(=O)n1c3ccccc3nc21,89.3
CN(C)c1ccc(C=C2C(=O)Nc3ccccc32)cc1,100
CNC(=O)c1cc(Oc2ccc(NC(=O)Nc3ccc(Cl)c(C(F)(F)F)c3)cc2)ccn1,102
CC(C)[C@H](CO)Nc1nc(Nc2cc(N)cc(Cl)c2)c2ncn(C(C)C)c2n1,31
Cn1c2ccccc2c2c3c(c4c5ccccc5n(CCC#N)c4c21)CNC3=O,95
COc1ccc(C(=O)Nc2sc3c(c2C(N)=O)CCCC3)cc1OC,97.6
COc1cc2ncnc(Nc3ccc(Oc4ccccc4)cc3)c2cc1OC,101
Nc1ccc2ncnc(NCCc3ccc(Oc4ccccc4)cc3)c2c1,95.3
CO[C@H]1C[C@@H]2CC[C@@H](C)[C@@](O)(O2)C(=O)C(=O)N2CCCC[C@H]2C(=O)O[C@H]([C@H](C)C[C@@H]2CC[C@@H](O)[C@H](OC)C2)CC(=O)[C@H](C)/C=C(\C)[C@@H](O)[C@@H](OC)C(=O)[C@H](C)C[C@H](C)/C=C/C=C/C=C/1C,104
Oc1ccc(-c2nc(-c3ccncc3)c(-c3ccc(F)cc3)[nH]2)cc1,102
Nc1ncnc2n[nH]c(Nc3ccc(F)cc3)c12,97.1
Cc1ccc(Nc2nccc(N(C)c3ccc4c(C)n(C)nc4c3)n2)cc1S(N)(=O)=O,104
OCC(O)CCON=C1C(c2c(O)[nH]c3ccccc23)=Nc2ccccc21 (stereo not drawn),86.5
Cc1ccc(NC(=O)c2ccc(CN3CCN(C)CC3)cc2)cc1Nc1nc(-c2cccnc2)cs1,101
O=C(CCCc1ccc(-c2ccccc2F)cc1)Nc1ccc(O)cc1,94.3
COc1cc2ncnc(Nc3ccc(F)c(Cl)c3)c2cc1OCCCN1CCOCC1,99.5

# Sample 5 — species: human; sample: microsomes or S9; concentration: 2 µM; time: 0.5 h
SMILES,remaining compound [%]
COc1ccc(-c2noc(CC(=O)NCc3ccccc3)c2-c2ccc(OC)cc2)cc1,0.447
CC(=O)N(CC(=O)N1CCCN(c2ccc(-c3ccccc3)nn2)CC1)C(C)c1ccccc1 (stereo not drawn),3.75
O=C(NC12CC3CC(CC(C3)C1)C2)C1CCN(c2cc(-n3cccc3)ncn2)CC1,0.707
CCN(CC)S(=O)(=O)c1ccc(OC)c(NC(=O)CCCOc2ccc(Cl)c(C)c2)c1,18.9
CC(C)(C)NC(=O)NC(=O)CN1CCCC1CN1CCCCC1 (stereo not drawn),40.4

# Sample 6 — effect on: kinase activity; mode: inhibitor; concentration: 1 µM
# SMILES: CC(C)S(=O)(=O)c1ccc2nccc(Nc3ccc4sc(C5CCCC5)nc4c3)c2c1.Cl
target,remaining activity [%]
"CSNK1A1 (Homo sapiens, UniProt P48729)",97
"ULK3 (Homo sapiens, UniProt Q6PHR2)",100
"SYK (Homo sapiens, UniProt P43405)",105

# Sample 7 — mode: inhibitor; concentration: 10 µM; reference: control
# Target: Diamine acetyltransferase 1 (Homo sapiens, UniProt P21673)
# Target sequence (P21673 1-171): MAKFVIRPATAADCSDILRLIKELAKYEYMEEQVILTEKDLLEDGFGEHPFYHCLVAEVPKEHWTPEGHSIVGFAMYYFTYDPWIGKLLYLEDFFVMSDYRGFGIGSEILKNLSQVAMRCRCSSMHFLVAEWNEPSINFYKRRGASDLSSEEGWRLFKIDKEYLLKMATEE
Compound,remaining activity
CCCCCCCCCCC(=O)O,114%
O=c1cc(-c2ccc(O)c(-c3c(O)cc(O)c4c(=O)cc(-c5ccc(O)cc5)oc34)c2)oc2cc(O)cc(O)c12,106%
CCCCCc1ccco1,97.1%

# Excerpt of the above (sample 1):
target,effect on,remaining binding [%]
"CDKL1 (Homo sapiens, UniProt Q00532)",binding,84
"MAP3K19 (Homo sapiens, UniProt Q56UN5)",cell-free assay,98
"CSNK2A2 (Homo sapiens, UniProt P19784)",cell-free assay,100
"MET (Homo sapiens, UniProt P08581, Y1235D)",cell-free assay,93
